Results pooled from the literature.
± gives the spread as reported.

SMILES | test | system | conditions | Tmax
CC(=O)c1c([O-])cc(C)oc1=O.[Na+] | – | rat Wistar female, serum | intragastric, 200 mg/kg | 63.6 ± 6.6 min
COc1ccc([C@@H]2CC(=O)c3c(O)cc(O[C@@H]4O[C@H](CO[C@@H]5O[C@@H](C)[C@H](O)[C@@H](O)[C@H]5O)[C@@H](O)[C@H](O)[C@H]4O)cc3O2)cc1O | – | Sprague Dawley rat, plasma | oral, 3.34 g lyophilized powder/kg, low dose | 14.4 ± 8.4 min
Brc1ccc2c(c1)C(c1ccccn1)=NCc1c(-c3cnco3)ncn1-2 | – | Sprague-Dawley rat, male, plasma | oral, 2 mg/kg | 60 min
COc1ccc(-c2cc(=O)c3c(OC)c(OC)c(OC)c(OC)c3o2)cc1OC | – | Sprague Dawley rat, plasma | oral, 10 g lyophilized powder/kg, high dose | 124 ± 66 min
COC(=O)[C@@H]1[C@H]2CC[C@@H](C[C@@H]1O)N2C | LC-MS/MS | Sprague-Dawley rat, whole blood | intraperitoneal, 20 mg/kg of cocaine | 58.3 ± 4.64 min
Cc1ccc(S(=O)(=O)Nc2c(N[C@H]3CC[C@H](NC(=O)Nc4ccc(F)c(Cl)c4)CC3)c(=O)c2=O)cc1 | – | rat, plasma | intravenous, 10 mg/kg | 1.8 min
CCOC(=O)C1=C[C@@H](OC(CC)CC)[C@H](NC(C)=O)[C@@H](N)C1 | non-compartmental analysis | Sprague-Dawley rats, male, plasma | oral, 30 mg/kg, alone | 78 ± 30 min
O=C(O)CCC(CP(=O)(O)O)C(=O)O (stereo not drawn) | – | male Wistar rat, brain | ip, 100 mg/kg | 4.8 min
O=C1C[C@@H](c2ccc(O[C@@H]3O[C@H](CO)[C@@H](O)[C@H](O)[C@H]3O)cc2)Oc2cc(O)ccc21 | – | Sprague Dawley rat, plasma | oral, 3.34 g lyophilized powder/kg, low dose | 19.8 ± 19.2 min
COC[C@]12CN(C)[C@@H]3[C@@H]4[C@H](OC)[C@H]1[C@@]3([C@@H](OC)C[C@H]2O)[C@@H]1C[C@@]2(O)[C@H](OC(=O)c3ccccc3)[C@@H]1[C@]4(OC(C)=O)[C@@H](O)[C@@H]2OC | – | Sprague-Dawley rat, plasma | oral, dose not given, in PCW extract | 55 ± 8.64 min
C[C@@H]1O[C@@H](O[C@H]2[C@H](Oc3cc(O)c4c(c3)O[C@H](c3ccc(O)cc3)CC4=O)O[C@H](CO)[C@@H](O)[C@@H]2O)[C@H](O)[C@H](O)[C@H]1O | – | Sprague Dawley rat, plasma | oral, 10 g lyophilized powder/kg, high dose | 6 ± 2.4 min
CC(=O)Oc1ccc2c3c1O[C@H]1[C@@H](OC(C)=O)C=C[C@H]4[C@@H](C2)N(C)CC[C@@]341 | – | Sprague-Dawley rat, male, whole blood | intraperitoneal, 10 mg/kg, single dose alone | 2 min
CC1(C)[C@@H](O)CC[C@]2(C)[C@H]3C(=O)C=C4[C@@H]5C[C@@](C)(C(=O)O)CC[C@]5(C)CC[C@@]4(C)[C@]3(C)CC[C@@H]12 | – | Sprague Dawley rat, plasma | oral, 10 g lyophilized powder/kg, high dose | 352 ± 87.6 min
O=[Se](=O)([O-])[O-].[Na+].[Na+] | – | rat | intraperitoneal, 1 mg/kg | 60 min
CCCCCn1nc(C(=O)Nc2cccc3ccccc23)c2ccccc21 | – | rat, plasma | intraperitoneal, 3 mg/kg, mean of 4 | 15 min
COC[C@@]12CC[C@H](OC)[C@]34C(C([C@H](OC)[C@H]13)[C@]1(OC(C)=O)[C@H]3[C@@H](OC(=O)c5ccccc5)[C@](O)(C[C@H]34)[C@@H](OC)[C@@H]1O)N(C)C2 | – | Sprague-Dawley rat, plasma | oral, dose not given, with NADES in PCW extract | 45 min
[2H]C([2H])(c1cc(F)c(F)cc1F)n1c(=O)n(Cc2ncn(C)n2)c(=O)[nH]/c1=N\c1cc2cn(C)nc2cc1Cl | – | Sprague Dawley rat | oral, 25 mg/kg | 48 min
C=CC[N+]1([C@H]2C[C@H]3[C@@H]4CC[C@H]5C[C@H](O)[C@@H](N6CCOCC6)C[C@]5(C)[C@H]4CC[C@]3(C)[C@H]2OC(C)=O)CCCC1 | – | Sprague Dawley rat, plasma | intravenous, dose not given, with: sugammadex 5 mg/kg ODD | 0 min
Cc1ccc2cc(N3CCC4(O)C(=O)c5cc(C)c(C)cc5N=C34)ccc2n1 (stereo not drawn) | – | rat, plasma | intravenous, 2 mg/kg | 4.8 min
CC1(C)[C@@H](O[C@H]2O[C@H](C(=O)O)[C@@H](O)[C@H](O)[C@H]2O[C@@H]2O[C@H](C(=O)O)[C@@H](O)[C@H](O)[C@H]2O)CC[C@]2(C)[C@H]3C(=O)C=C4[C@@H]5C[C@@](C)(C(=O)O)CC[C@]5(C)CC[C@@]4(C)[C@]3(C)CC[C@@H]12 | – | Sprague Dawley rat, plasma | oral, 3.34 g lyophilized powder/kg, low dose | 373 ± 93.6 min
COC(=O)[C@H]1[C@@H](OC(=O)c2ccccc2)C[C@@H]2CC[C@H]1N2 | LC-MS/MS | Sprague-Dawley rat, whole blood | intraperitoneal, 20 mg/kg of cocaine | 11.9 ± 1.89 min
COc1ccc([C@@H]2CC(=O)c3c(O)cc(O[C@@H]4O[C@H](CO)[C@@H](O)[C@H](O)[C@H]4O[C@@H]4O[C@@H](C)[C@H](O)[C@@H](O)[C@H]4O)cc3O2)cc1O | – | Sprague Dawley rat, plasma | oral, 3.34 g lyophilized powder/kg, low dose | 12.6 ± 9.6 min
[Se] | – | rat, plasma | intraperitoneal, 1 mg/kg, sodium selenate | 30 min
CCc1cc(OC)cc2c(/C=N/NC(=N)NCCc3ccc(F)cc3)c[nH]c12 | – | rat Long-Evans, male, brain | intraperitoneal, 10 mg/kg | 480 min
CCN1C[C@]2(COC)[C@H](O)C[C@H](OC)[C@@]34[C@@H]5C[C@@]6(O)[C@H](OC(=O)c7ccccc7)[C@@H]5[C@@](OC(C)=O)([C@@H]([C@H](OC)[C@H]23)[C@@H]14)[C@@H](O)[C@@H]6OC | – | Sprague-Dawley rat, plasma | oral, dose not given, in PCW extract | 30 min
O=C(O)[C@H]1O[C@@H](Oc2cc3oc(-c4ccc(O)cc4)cc(=O)c3c(O)c2O)[C@H](O)[C@@H](O)[C@@H]1O | – | Sprague Dawley rat, plasma | oral, 10 g lyophilized powder/kg, high dose | 361 ± 199 min
C#Cc1ccc2c(c1)C(c1ccccn1)=NCc1c(-c3cnco3)ncn1-2 | – | Sprague Dawley rat, plasma | oral, 2 mg/kg, cassette dosing | ~60 min

A few entries again:
SMILES | test | system | conditions | Tmax
COC[C@]12CN(C)[C@@H]3[C@@H]4[C@H](OC)[C@H]1[C@@]3([C@@H](OC)C[C@H]2O)[C@@H]1C[C@@]2(O)[C@H](OC(=O)c3ccccc3)[C@@H]1[C@]4(OC(C)=O)[C@@H](O)[C@@H]2OC | – | Sprague-Dawley rat, plasma | oral, dose not given, in PCW extract | 55 ± 8.64 min
C[C@@H]1O[C@@H](O[C@H]2[C@H](Oc3cc(O)c4c(c3)O[C@H](c3ccc(O)cc3)CC4=O)O[C@H](CO)[C@@H](O)[C@@H]2O)[C@H](O)[C@H](O)[C@H]1O | – | Sprague Dawley rat, plasma | oral, 10 g lyophilized powder/kg, high dose | 6 ± 2.4 min
CC(=O)Oc1ccc2c3c1O[C@H]1[C@@H](OC(C)=O)C=C[C@H]4[C@@H](C2)N(C)CC[C@@]341 | – | Sprague-Dawley rat, male, whole blood | intraperitoneal, 10 mg/kg, single dose alone | 2 min
